Published values pooled from the literature.
A part holds a random share of what one study measured. Substitutions count along the parent as printed.

Study 1
Target: Fragile X messenger ribonucleoprotein 1, C-terminal low-complexity region (Fmr1, Mus musculus, UniProt P35922)
Technique: RNA Bind-n-Seq
Form: RNA
Matrix: in vitro
Tested at: 200 nM
Notes: whole 134-nt RNA, ends assumed
Added: 150 mM LiCl
Relative to: input library
Direction: higher = stronger binding
Measurement: log2 enrichment
Library: 7-deaza-guanosine replaces G
Shared flanks, not repeated: GGGAGUUCUACAGUCCGACGAUC … UGGAAUUCUCGGGUGUCAAGG
ACCAUGCAGGUGGGCAUCUUUGGGAAGUGGGGCAAGAGGGGGAUAGGGAGGGGGGUAACACUUUGGGAACAGGUGGUCCCAGGUCGUUUC: 1.36
UCCUGUGCUACACAUCGUAUGUACCGAAUCGGGUUUGGGAAAAAAAGGGUUUUUUUGGGAAAGUAUUAUGUUACGCCGUUCGGAUCUGCA: -1.38
CACAGACAACACUCACCCACACAGACACAGAGGGAAGGGGUUGGGAUGGGGACAGGGUGCACAGCAGGGCGGGGUAGGACCCCAGCCCCU: 0.189
ACCAUGCAGGUGGGCAUCUUUGGGAAGUGGGGCAAGGGGGAAAUAGGGAGGGGGGUAACACUUUGGGAACAGGUGGUCCCAGGUCGUUUC: 1.13
UCAAGUCCUGUGCUACACAUCGUAUGUACCGAAUCGGGCCCGGGCCCGGGCCCGGAAAGUAUUAUGUUACGCCGUUCGGAUCUGCACUUC: -0.867
GCAGGAAGUAAAAACAAAUGGAAAUGCUUCGAAUAGUGGCAGGGGUGGGGGUUGCUAAGGAAAGGGUGGGAUGGGAGUGGGUAAAGAGUU: 1.41
UCAAGUCCUGUGCUACACAUCGUAUGUACCGAAUCGGGUGGGAAAGGGUUUGGGAAAGUAUUAUGUUACGCCGUUCGGAUCUGCACUUCC: -2.37
UGGCCCUGGUGGCAUGCGGGGAGGAAGAGGUGGCCUCAUGGAUCGUGGCGGUCCCGGUGGAAUGUUCAGAGGUGGCCGUGGUGGAGACAG: -0.243

Study 2
Target: PABPC1L2, full length, GST fusion (mouse, UniProt A0ABA7IW68)
Technique: RNAcompete
Form: RNA
Matrix: in vitro
Tested at: 20 nM
Notes: 7-mer, probes averaged, single round
Relative to: mean of 7-mers
Direction: higher = stronger binding
Measurement: 7-mer Z-score
Construct (chain): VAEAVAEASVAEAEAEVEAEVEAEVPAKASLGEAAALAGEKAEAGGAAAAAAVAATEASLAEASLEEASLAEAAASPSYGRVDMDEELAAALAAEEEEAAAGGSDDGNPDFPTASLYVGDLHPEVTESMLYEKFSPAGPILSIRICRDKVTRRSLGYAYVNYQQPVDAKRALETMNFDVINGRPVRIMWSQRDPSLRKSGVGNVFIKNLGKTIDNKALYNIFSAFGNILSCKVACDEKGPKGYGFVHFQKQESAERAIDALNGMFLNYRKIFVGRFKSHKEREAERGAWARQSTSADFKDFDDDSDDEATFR
CUUGGUG: 0.0352
GUCUGCA: -0.309
CAGGCCC: -0.135
GUCAUGC: -0.271
UAGAACA: 0.0642
UUACCCA: -0.282
GAGAUGC: -0.0953
CUGGAUU: -0.171
UGGAGCG: 0.287
GAGUCGG: -0.0899
UGUUUUA: -0.354
UUUCUUA: -0.335
GUCUAGG: -0.213
GCGCAAA: 0.816
CGCAAAC: 0.193
AGAAAAA: 11.7
GAGAUUC: -0.24
CCCAUCA: -0.269
ACCUAGG: -0.153
GCGUCUC: -0.309
CUACCAU: -0.184
CGUUGCA: -0.246
AACAACU: 0.445
UGGAAUG: -0.0464
AAUCCGA: 0.0261

Study 3
Target: RING finger protein unkempt homolog, zinc fingers 1-6, GST-SBP tag (UNK, Homo sapiens, UniProt Q9C0B0, residues 30-357)
Technique: RNA Bind-n-Seq
Form: RNA
Matrix: in vitro
Tested at: not given
Notes: RNA with constant flanks, human and mouse sites, ends assumed
Relative to: input RNA pool
Direction: higher = stronger binding
Measurement: bound/input enrichment
Shared flanks, not repeated: GGGAGUUCUACAGUCCGACGAUC … CAACAGAGGAUUGAGCAUCA
Residues (chain): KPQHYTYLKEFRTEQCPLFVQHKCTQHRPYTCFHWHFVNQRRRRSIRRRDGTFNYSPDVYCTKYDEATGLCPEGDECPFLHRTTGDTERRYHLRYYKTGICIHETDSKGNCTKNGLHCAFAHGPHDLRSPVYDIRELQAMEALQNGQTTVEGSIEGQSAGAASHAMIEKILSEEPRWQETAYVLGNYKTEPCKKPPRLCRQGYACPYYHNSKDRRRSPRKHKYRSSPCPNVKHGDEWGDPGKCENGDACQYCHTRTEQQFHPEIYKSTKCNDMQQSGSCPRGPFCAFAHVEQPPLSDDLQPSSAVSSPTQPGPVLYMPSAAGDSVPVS
AAACCUGUGGGCUUUGGAGAAGAGUUCGACGAGGAUGAGCUCAUGGCAGAGUUGGAGGAACUUGAACAAGAGGAGUUGGACAAGAAUUUGUUGGAGAUCAGUGGGCCCGAAACAGUCCCU: 0.311 ratio
ACCCCGCGGAGCUGUGGCGGCAGAAUGGCGCAGACCGCCAUGUCCGAGACUUACGAUUUCUUGUUUAAAUUCUUGGUCAUCGGAAAUGCGGGAACUGGCAAAUCUUGCUUGCUUCAUCAG: 0.109 ratio
AACCAUCAGGAAGGAACAUCUAGUGAUGAUGAACUGCCUUCAGCAGAGAUGAUUGACUUCCAAAAAAGCCAAGGUGACAUUUUACAGAAACAGAAGAAAGUUUUUGAAGAAGUGCAAGAU: 0.12 ratio
GCUUCUAUACUAGCUACCUUCACUGUAACAGAAGGGAAGAAAAAAAUUCCUGUUGCUGGCUGCAGAGUUCAAAAGGGACAAUUAGAAAGACAUAAGAAGUUUAAAUUAAUCCGAAACGGC: 3.26 ratio
CGAUCAGGGGAUAGUGAAGUUUACCAACUGGGUGAUGUCAGUCAAAAGACAACAUGGCACAGAAUAUCAGUAUUCCGGCCAGGCCUCAGAGACGUGGCAUAUCAAUAUGUGAAAAAGGGG: 0.351 ratio
UCCCAAAUCCAGCAGCUAGAAGGAGCCUUGAGACAAACACUCCACACACAGGGAAGGCGAUAACAUUGUACAUUGGUUUACAUUUUUUCCCCCUGUGGAUUUUUCUAGAGGUCAUAGUGC: 0.428 ratio
GGGCCUUGGAAGCUGACGGCGUCCAAGACCCACAUCAUGAAGUCUGCGGAUGUGGAAAAGUUAGCUGACGAGCUGCACAUGCCAUCCCUCCCUGAAAUGAUGUUUGGAGACAACGUUCUA: 0.0332 ratio
GUUCAUUUCCUGUUCACUACUAAUGGUGCUUCUCAUCCUCUGAUCUCUUCUCUCUCGUGUGUUAAACAAGUGUAUUAAAGAUGCUUCAUAAUGCCAACAACAUAGCAGGUCAGUGAACAU: 0.807 ratio

Study 4
Target: CCNB3, cyclin fold, Cln2 fusion (human)
Technique: yeast growth competition, sequencing
Matrix: yeast
Notes: weak parent motif
Relative to: not given
Direction: higher = stronger binding
Measurement: normalised enrichment score
Parent: ITGB3BP docking peptide (human); MPVKRSLKLDGLL
V3A: 0.534
P2A: 0.232
L12A: 0.327
S6A: 0.525
L9F: 1
L9A: 0.162
L13A: 0.502

Study 5
Target: ABI1, truncated, D143A, DHFR fusion (Arabidopsis thaliana)
Technique: DHFR PCA, deep sequencing
Matrix: yeast
Notes: methotrexate growth selection, single substitutions
Added: (+)-ABA 4.8 µM
Relative to: wild-type fitted maximum
Direction: higher = stronger binding
Measurement: relative binding score
Parent: PYL1, truncated, DHFR fusion (Arabidopsis thaliana); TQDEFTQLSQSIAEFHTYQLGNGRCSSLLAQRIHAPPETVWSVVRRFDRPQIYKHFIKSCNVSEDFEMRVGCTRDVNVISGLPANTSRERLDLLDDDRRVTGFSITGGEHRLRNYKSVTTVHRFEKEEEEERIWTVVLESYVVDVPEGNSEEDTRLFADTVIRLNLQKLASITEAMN; partner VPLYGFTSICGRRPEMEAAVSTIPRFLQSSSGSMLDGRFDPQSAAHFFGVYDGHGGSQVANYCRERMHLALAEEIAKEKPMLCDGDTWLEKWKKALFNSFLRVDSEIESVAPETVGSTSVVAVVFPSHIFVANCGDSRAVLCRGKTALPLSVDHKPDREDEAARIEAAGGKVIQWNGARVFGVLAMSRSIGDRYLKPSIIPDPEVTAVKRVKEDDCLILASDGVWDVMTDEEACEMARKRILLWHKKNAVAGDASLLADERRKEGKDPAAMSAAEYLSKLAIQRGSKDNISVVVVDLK
V142T: 76.3%
R90V: 56.7%
F47Y: 5.39%
T101H: -0.356%
Q7N: 68.9%
L94F: 78.8%
E174R: 11.3%
K58N: 33.8%
A35W: -2.69%

Single results of other studies
PhoQ, residues 284 288 289 292 302 303 TLMATV  fold induction (PhoP, residues 12 14 15 18 19 AQCLL (Escherichia coli, UniProt P23836); Sort-seq, item: YFP reporter; E. coli; PhoQ-PhoP variant library, added: 10 µM Mg2+; relative to: high Mg2+ state, higher = stronger signaling): 2.18
